Experimental data collected from several papers.
Each numbered part is a random draw from the data of one study; scales do not carry over between parts.
Chain of UniProt Q13153 (whole entry, looked up): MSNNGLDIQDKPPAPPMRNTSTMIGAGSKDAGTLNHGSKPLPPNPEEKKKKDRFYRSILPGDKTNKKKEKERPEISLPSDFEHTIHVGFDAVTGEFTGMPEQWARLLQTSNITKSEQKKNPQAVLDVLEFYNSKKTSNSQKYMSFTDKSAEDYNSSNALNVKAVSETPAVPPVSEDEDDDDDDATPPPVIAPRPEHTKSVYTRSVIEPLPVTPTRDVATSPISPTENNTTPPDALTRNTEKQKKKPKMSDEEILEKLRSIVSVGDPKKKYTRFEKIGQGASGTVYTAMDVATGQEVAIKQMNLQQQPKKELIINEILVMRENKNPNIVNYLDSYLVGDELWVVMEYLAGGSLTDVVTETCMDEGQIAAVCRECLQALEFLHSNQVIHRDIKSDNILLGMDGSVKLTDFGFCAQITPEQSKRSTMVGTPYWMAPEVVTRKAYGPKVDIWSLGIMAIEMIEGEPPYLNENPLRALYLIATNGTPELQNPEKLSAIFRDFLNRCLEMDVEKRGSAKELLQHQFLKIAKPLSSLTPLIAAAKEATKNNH
Chain of UniProt Q14012 (whole entry, looked up): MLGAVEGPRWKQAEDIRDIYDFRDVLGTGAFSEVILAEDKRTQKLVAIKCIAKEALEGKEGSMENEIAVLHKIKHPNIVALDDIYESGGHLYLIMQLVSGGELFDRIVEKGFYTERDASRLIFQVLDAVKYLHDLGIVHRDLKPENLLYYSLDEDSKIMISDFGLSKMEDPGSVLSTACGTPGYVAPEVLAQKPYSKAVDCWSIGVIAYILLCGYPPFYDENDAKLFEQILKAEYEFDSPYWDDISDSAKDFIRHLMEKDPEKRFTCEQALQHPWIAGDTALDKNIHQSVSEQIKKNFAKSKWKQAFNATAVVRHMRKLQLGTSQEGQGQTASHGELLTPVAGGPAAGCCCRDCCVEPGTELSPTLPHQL
Chain of UniProt P17948 (whole entry, looked up): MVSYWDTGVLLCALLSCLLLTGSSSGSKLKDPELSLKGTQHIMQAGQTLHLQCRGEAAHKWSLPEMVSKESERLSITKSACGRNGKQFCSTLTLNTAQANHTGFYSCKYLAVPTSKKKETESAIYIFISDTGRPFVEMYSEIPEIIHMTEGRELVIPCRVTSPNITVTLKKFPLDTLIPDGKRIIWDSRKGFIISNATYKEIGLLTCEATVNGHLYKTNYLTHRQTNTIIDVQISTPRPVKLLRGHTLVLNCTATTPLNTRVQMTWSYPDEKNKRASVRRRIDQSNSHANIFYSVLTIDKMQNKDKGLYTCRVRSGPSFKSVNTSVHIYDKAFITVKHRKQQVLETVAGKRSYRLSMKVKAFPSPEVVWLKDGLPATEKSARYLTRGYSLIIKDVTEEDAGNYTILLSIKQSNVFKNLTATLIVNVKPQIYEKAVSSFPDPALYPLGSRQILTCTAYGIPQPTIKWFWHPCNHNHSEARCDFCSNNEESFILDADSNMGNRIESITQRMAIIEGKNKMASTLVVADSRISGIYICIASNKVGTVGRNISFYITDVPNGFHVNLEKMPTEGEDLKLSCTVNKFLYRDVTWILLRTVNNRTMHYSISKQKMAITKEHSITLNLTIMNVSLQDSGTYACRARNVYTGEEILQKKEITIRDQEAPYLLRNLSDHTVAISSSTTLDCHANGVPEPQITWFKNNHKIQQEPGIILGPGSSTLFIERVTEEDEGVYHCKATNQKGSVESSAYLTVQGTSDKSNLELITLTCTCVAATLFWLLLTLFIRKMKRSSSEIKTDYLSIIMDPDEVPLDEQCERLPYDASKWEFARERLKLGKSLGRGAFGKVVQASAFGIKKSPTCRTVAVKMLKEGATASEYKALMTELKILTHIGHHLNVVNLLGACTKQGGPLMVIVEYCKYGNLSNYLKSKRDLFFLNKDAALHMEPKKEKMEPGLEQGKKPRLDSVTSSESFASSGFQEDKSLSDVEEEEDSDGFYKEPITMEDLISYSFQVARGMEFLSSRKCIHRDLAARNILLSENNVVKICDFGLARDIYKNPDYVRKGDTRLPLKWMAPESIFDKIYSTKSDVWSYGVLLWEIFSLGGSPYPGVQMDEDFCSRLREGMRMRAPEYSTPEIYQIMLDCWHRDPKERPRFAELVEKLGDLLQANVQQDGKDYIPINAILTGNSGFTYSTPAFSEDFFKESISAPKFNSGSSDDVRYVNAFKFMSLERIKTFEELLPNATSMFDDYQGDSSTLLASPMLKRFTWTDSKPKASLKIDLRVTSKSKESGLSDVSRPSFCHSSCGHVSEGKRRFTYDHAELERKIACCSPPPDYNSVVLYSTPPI
Chain of UniProt Q9NYL2 (whole entry, looked up): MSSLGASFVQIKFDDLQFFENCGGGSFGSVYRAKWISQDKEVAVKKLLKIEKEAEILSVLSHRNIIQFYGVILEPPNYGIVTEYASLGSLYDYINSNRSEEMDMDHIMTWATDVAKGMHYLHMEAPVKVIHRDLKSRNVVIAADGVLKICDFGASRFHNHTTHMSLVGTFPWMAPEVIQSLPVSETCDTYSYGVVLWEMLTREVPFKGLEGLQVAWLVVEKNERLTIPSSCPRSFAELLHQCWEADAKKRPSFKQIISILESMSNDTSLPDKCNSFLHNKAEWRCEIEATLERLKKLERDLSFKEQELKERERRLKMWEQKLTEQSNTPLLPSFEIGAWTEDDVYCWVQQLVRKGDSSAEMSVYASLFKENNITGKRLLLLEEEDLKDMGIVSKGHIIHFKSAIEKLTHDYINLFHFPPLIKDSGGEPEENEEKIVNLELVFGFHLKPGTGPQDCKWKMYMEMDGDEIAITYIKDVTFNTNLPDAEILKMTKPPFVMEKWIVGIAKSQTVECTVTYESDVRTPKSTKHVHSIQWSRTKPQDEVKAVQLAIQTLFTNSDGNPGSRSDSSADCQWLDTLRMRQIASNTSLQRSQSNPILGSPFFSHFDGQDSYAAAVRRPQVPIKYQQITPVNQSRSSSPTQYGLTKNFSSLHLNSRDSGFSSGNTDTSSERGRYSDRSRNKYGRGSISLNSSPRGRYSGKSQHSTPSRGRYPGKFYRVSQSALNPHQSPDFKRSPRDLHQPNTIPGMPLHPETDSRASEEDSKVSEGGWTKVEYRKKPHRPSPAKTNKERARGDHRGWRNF
Chain of UniProt P48730 (whole entry, looked up): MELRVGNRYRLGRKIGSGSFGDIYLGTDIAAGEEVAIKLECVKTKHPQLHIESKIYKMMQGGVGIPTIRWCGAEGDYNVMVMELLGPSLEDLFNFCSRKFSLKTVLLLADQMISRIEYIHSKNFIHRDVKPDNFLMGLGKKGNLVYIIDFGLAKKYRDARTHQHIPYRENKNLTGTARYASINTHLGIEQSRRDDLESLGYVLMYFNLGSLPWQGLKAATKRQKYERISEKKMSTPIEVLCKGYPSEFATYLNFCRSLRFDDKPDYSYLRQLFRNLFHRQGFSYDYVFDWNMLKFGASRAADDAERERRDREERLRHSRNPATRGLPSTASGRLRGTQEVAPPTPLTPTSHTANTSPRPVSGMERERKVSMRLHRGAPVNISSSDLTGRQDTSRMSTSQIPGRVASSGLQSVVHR
Chain of UniProt P0C1S8 (whole entry, looked up): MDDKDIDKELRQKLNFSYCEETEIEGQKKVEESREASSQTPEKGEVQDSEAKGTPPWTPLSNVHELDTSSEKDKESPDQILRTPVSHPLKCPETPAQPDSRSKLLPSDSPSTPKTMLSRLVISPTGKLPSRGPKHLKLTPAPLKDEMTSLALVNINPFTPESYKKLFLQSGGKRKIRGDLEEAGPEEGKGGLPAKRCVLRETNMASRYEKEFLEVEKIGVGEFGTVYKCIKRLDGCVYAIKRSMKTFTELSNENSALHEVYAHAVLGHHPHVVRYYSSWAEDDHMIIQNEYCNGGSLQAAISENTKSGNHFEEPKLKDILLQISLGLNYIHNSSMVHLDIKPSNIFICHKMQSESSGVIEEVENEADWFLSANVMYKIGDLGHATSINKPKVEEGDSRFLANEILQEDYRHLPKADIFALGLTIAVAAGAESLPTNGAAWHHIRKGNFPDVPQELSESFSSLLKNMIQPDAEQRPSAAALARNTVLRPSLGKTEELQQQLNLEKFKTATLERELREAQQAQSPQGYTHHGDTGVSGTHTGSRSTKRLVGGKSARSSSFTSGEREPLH
Chain of UniProt P49760 (whole entry, looked up): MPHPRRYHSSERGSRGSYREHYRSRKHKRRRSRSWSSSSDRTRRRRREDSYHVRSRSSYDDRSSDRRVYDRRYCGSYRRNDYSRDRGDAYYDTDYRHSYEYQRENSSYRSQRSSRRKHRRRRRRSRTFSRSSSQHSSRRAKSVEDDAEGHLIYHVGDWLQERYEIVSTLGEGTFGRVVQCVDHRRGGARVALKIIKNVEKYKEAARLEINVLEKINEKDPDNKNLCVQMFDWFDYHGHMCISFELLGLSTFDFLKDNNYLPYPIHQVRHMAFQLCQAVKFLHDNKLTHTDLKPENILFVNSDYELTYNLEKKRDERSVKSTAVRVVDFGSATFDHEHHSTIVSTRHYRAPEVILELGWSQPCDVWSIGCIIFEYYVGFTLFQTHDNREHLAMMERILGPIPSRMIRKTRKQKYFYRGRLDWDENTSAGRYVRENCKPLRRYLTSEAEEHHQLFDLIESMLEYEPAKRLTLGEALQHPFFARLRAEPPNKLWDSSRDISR

Block 1
SMILES: CN(C)C[C@H]1CCn2c(c(C3=C(c4cn(C)c5ccccc45)C(=O)NC3=O)c3ccccc32)C1
Observed: enzyme activity
Mode: inhibitor
Tested at: 0.5 µM
Baseline: control
| target | remaining activity [%] |
| --- | --- |
| Serine/threonine-protein kinase Sgk2 (SGK2, Homo sapiens, UniProt Q9HBY8) | 71.7 |
| Insulin-like growth factor 1 receptor (IGF1R, Homo sapiens, UniProt P08069) | 101 |
| Ephrin type-A receptor 6 (EPHA6, Homo sapiens, UniProt Q9UF33) | 100 |
| Casein kinase I isoform delta (CSNK1D, Homo sapiens, UniProt P48730) | 101 |
| Serine/threonine-protein kinase PAK 1 (PAK1, Homo sapiens, UniProt Q13153) | 99.8 |
| Serine/threonine-protein kinase PAK 6 (PAK6, Homo sapiens, UniProt Q9NQU5) | 114 |
| Cyclin-dependent kinase 2, with cyclin E (CDK2, Homo sapiens, UniProt P24941) | 64.4 |
| Ephrin type-A receptor 2 (EPHA2, Homo sapiens, UniProt P29317) | 102 |
| Calcium/calmodulin-dependent protein kinase type 1 (CAMK1, Homo sapiens, UniProt Q14012) | 105 |
| Tyrosine-protein kinase receptor TYRO3 (TYRO3, Homo sapiens, UniProt Q06418) | 99.3 |
| Protein kinase C zeta type (PRKCZ, Homo sapiens, UniProt Q05513) | 31 |
| Mitogen-activated protein kinase kinase kinase 20 (MAP3K20, Homo sapiens, UniProt Q9NYL2) | 87.3 |
| Dual specificity protein kinase CLK1 (CLK1, Homo sapiens, UniProt P49759) | 105 |
| Serine/threonine-protein kinase SIK2 (SIK2, Homo sapiens, UniProt Q9H0K1) | 88.8 |
| Muscle, skeletal receptor tyrosine-protein kinase (MUSK, Homo sapiens, UniProt O15146) | 85.6 |
| Tyrosine-protein kinase Tec (TEC, Homo sapiens, UniProt P42680) | 108 |
| Calcium/calmodulin-dependent protein kinase kinase 1 (CAMKK1, Homo sapiens, UniProt Q8N5S9) | 116 |
| SRSF protein kinase 1 (SRPK1, Homo sapiens, UniProt Q96SB4) | 103 |
| Vascular endothelial growth factor receptor 1 (FLT1, Homo sapiens, UniProt P17948) | 91.3 |
| Tyrosine-protein kinase JAK1 (JAK1, Homo sapiens, UniProt P23458) | 108 |
| Ribosomal protein S6 kinase alpha-3 (RPS6KA3, Homo sapiens, UniProt P51812) | 1.81 |
| Protein kinase C theta type (PRKCQ, Homo sapiens, UniProt Q04759) | 12.7 |
| Dual specificity protein kinase CLK2 (CLK2, Homo sapiens, UniProt P49760) | 85.9 |
| Casein kinase I isoform epsilon (CSNK1E, Homo sapiens, UniProt P49674) | 99.7 |

Block 2
Target: Calcium/calmodulin-dependent protein kinase type II subunit alpha (CAMK2A, Homo sapiens, UniProt Q9UQM7)
Chain of UniProt Q9UQM7 (whole entry, looked up): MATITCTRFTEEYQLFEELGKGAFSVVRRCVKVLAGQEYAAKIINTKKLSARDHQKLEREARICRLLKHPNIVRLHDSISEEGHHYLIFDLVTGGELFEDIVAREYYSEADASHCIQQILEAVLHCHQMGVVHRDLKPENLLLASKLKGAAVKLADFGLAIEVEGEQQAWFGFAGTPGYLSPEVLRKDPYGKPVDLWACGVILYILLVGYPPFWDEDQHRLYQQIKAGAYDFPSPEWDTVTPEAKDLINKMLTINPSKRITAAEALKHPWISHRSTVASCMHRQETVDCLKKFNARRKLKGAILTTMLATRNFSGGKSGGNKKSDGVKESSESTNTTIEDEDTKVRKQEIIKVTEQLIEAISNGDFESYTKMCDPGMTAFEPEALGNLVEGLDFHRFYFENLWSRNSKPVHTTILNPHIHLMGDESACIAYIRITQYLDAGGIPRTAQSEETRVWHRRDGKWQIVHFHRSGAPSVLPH
Observed: enzyme activity
Mode: inhibitor
Tested at: 10 µM
| Structure (SMILES) | inhibition [%] |
| --- | --- |
| O=C(OC[C@H]1O[C@@H](OC(=O)c2cc(O)c(O)c(OC(=O)c3cc(O)c(O)c(O)c3)c2)[C@H](OC(=O)c2cc(O)c(O)c(OC(=O)c3cc(O)c(O)c(O)c3)c2)[C@@H](OC(=O)c2cc(O)c(O)c(OC(=O)c3cc(O)c(O)c(O)c3)c2)[C@@H]1OC(=O)c1cc(O)c(O)c(OC(=O)c2cc(O)c(O)c(O)c2)c1)c1cc(O)c(O)c(OC(=O)c2cc(O)c(O)c(O)c2)c1 | 88 |
| COc1c(/C=C/C(=O)c2ccc(O)cc2)ccc(O)c1O | -10 |
| O=C(CCCN1CCC(O)(c2ccc(Br)cc2)CC1)c1ccc(F)cc1 | -7 |
| O=C(O)C1CCCCC1 | 6 |
| CCc1cc(C(N)=S)ccn1 | -5 |
| CCCCC(F)(F)[C@@]1(O)CC[C@H]2[C@@H](CC(=O)[C@@H]2CCCCCCC(=O)O)O1 | -4 |
| CC1=C(C=O)C(C)(C)C[C@H](O[C@@H]2O[C@H](CO)[C@@H](O)[C@H](O)[C@H]2O)C1 | 19 |

Block 3
Structure (SMILES): COc1ccc2cc(OCC3(C(=O)O)CN(C(=O)c4ccc(F)cc4)C3)ccc2c1
Technique: competition with immobilised ligand
Tested at: 1 µM
| target | assay | remaining binding |
| --- | --- | --- |
| Wee1-like protein kinase 2 (WEE2, Homo sapiens, UniProt P0C1S8) | cell-free assay | 100% |
| Tyrosine-protein kinase Lyn (LYN, Homo sapiens, UniProt P07948) | cell-free assay | 85% |
| Receptor-type tyrosine-protein kinase FLT3 (FLT3, Homo sapiens, UniProt P36888, ITD) | cell-free assay | 100% |
| Calcium/calmodulin-dependent protein kinase type II subunit beta (CAMK2B, Homo sapiens, UniProt Q13554) | cell-free assay | 100% |
| Dual specificity mitogen-activated protein kinase kinase 6 (MAP2K6, Homo sapiens, UniProt P52564) | cell-free assay | 100% |
| Serine/threonine-protein kinase 32A (STK32A, Homo sapiens, UniProt Q8WU08) | cell-free assay | 97% |
| Cyclin-dependent kinase 11A (CDK11A, Homo sapiens, UniProt Q9UQ88) | binding | 100% |
| Epidermal growth factor receptor (EGFR, Homo sapiens, UniProt P00533, L858R/T790M) | cell-free assay | 100% |
| Vascular endothelial growth factor receptor 1 (FLT1, Homo sapiens, UniProt P17948) | cell-free assay | 100% |
| ALK tyrosine kinase receptor (ALK, Homo sapiens, UniProt Q9UM73, C1156Y) | cell-free assay | 79% |
| Calcium/calmodulin-dependent protein kinase kinase 2 (CAMKK2, Homo sapiens, UniProt Q96RR4) | cell-free assay | 94% |
| Serine/threonine-protein kinase Nek6 (NEK6, Homo sapiens, UniProt Q9HC98) | cell-free assay | 100% |
| Serine/threonine-protein kinase PAK 1 (PAK1, Homo sapiens, UniProt Q13153) | cell-free assay | 87% |
| Insulin receptor-related protein (INSRR, Homo sapiens, UniProt P14616) | cell-free assay | 67% |
| Receptor tyrosine-protein kinase erbB-4 (ERBB4, Homo sapiens, UniProt Q15303) | cell-free assay | 100% |
| Macrophage colony-stimulating factor 1 receptor, autoinhibited (CSF1R, Homo sapiens, UniProt P07333) | cell-free assay | 75% |
| Ephrin type-B receptor 2 (EPHB2, Homo sapiens, UniProt P29323) | cell-free assay | 100% |
| Calcium/calmodulin-dependent protein kinase type 1 (CAMK1, Homo sapiens, UniProt Q14012) | cell-free assay | 100% |
| Inhibitor of nuclear factor kappa-B kinase subunit epsilon (IKBKE, Homo sapiens, UniProt Q14164) | cell-free assay | 95% |
| MAP kinase-activated protein kinase 2 (MAPKAPK2, Homo sapiens, UniProt P49137) | cell-free assay | 100% |
| Tyrosine-protein kinase ABL1, phosphorylated (ABL1, Homo sapiens, UniProt P00519) | cell-free assay | 100% |
| Serine/threonine-protein kinase VRK2 (VRK2, Homo sapiens, UniProt Q86Y07) | cell-free assay | 100% |
| Cyclin-dependent kinase 15 (CDK15, Homo sapiens, UniProt Q96Q40) | cell-free assay | 100% |
| Dual serine/threonine and tyrosine protein kinase (DSTYK, Homo sapiens, UniProt Q6XUX3) | cell-free assay | 100% |
| Platelet-derived growth factor receptor beta (PDGFRB, Homo sapiens, UniProt P09619) | cell-free assay | 100% |

Block 4
Medium: hydrocarbon/water
| Structure (SMILES) | logD |
| --- | --- |
| CCCN1CC(=O)N[C@@H](CC(C)C)C(=O)N(C)[C@@H](C)C(=O)N[C@@H](CC(C)C)C(=O)N(C)[C@H](C(=O)OCC)CSCC(=O)N[C@@H](CC(C)C)C(=O)N(C)[C@@H](C)C(=O)N[C@@H](CC(C)C)C(=O)N2CCC[C@@H]2C1=O | 2.67 |
| CC(C)C[C@@H]1NC(=O)[C@H](C)N(C)C(=O)[C@H](CC2CCCCC2)NC(=O)[C@H](CC(C)C)N(C)C(=O)[C@H]2CCCN2C(=O)[C@H](CC2CCCCC2)NC(=O)[C@H](C)N(C)C(=O)[C@H](C2CCCCC2)NC(=O)Cn2cc(nn2)CN(C)C1=O | 3.02 |
| CC[C@H]1NC(=O)[C@H](CC(C)C)NC(=O)[C@H](Cc2ccccc2)NC(=O)[C@H]2CCCN2C(=O)[C@H](CC(C)C)NC(=O)[C@H](C)NC1=O | -1.13 |
| CCC[C@H]1C(=O)N[C@@H](CC2CCCCC2)C(=O)N(C)[C@@H](C)C(=O)N[C@@H](CC(C)C)C(=O)N(C)Cc2cn(nn2)CC(=O)N[C@@H](CC(C)C)C(=O)N(C)[C@@H](C)C(=O)N[C@@H](CC(C)C)C(=O)N2CCC[C@@H]2C(=O)N1C | 1.6 |
| CCC[C@@H]1NC(=O)[C@H](C)N(C)C(=O)[C@H](CC(C)C)NC(=O)Cn2cc(nn2)CN(C)C(=O)[C@H](CC(C)C)NC(=O)[C@H](C)N(C)C(=O)[C@H](CC(C)C)NC(=O)CN(CC)C(=O)[C@H]2CCCN2C1=O | -1.2 |
| CC(C)C[C@@H]1NC(=O)[C@H](Cc2ccccc2)N(C)C(=O)[C@H]2CCCN2C(=O)[C@H](CC(C)C)NC(=O)[C@H](C)N(C)C(=O)[C@@H](C)N(C)C1=O | 1.13 |
| CCC[C@H]1C(=O)N[C@@H](CC2CCCCC2)C(=O)N(C)[C@@H](C)C(=O)N[C@@H](CC(C)C)C(=O)N(C)Cc2cn(nn2)CC(=O)N[C@@H](C2CCCCC2)C(=O)N(C)[C@@H](C)C(=O)N[C@@H](CC2CCCCC2)C(=O)N2CCC[C@@H]2C(=O)N1C | 2.8 |
| CCC[C@@H]1NC(=O)[C@H](C)N(C)C(=O)[C@H](CC(C)C)NC(=O)Cn2cc(nn2)CN(C)C(=O)[C@H](CC(C)C)NC(=O)[C@H](C)N(C)C(=O)[C@H](CC(C)C)NC(=O)CN(CCC)C(=O)[C@H]2CCCN2C1=O | -0.493 |
| CCC[C@@H]1NC(=O)CN(CCC)C(=O)[C@H](CC(C)C)NC(=O)Cn2cc(nn2)CN(C)C(=O)[C@H](CC(C)C)NC(=O)[C@H](C)N(C)C(=O)[C@H](CC)NC(=O)[C@H](C)N(C)C(=O)[C@H]2CCCN2C1=O | -1.84 |
| CCCCCN1CC(=O)N[C@@H](C)C(=O)N2CCC[C@@H]2C(=O)N(C)[C@@H](CC(C)C)C(=O)N[C@@H](C)C(=O)N(Cc2ccc3c(c2)OCO3)CC(=O)N[C@@H](CC(C)C)C(=O)N2CCC[C@@H]2C(=O)N(C)[C@@H](CC(C)C)C(=O)N[C@@H](C)C1=O | 2.16 |
| CCC[C@@H]1NC(=O)CSC[C@@H](C(=O)OCC)N(C)C(=O)[C@H](CC(C)C)NC(=O)[C@H](C)N(C)C(=O)[C@@H](CC(C)C)NC(=O)[C@H](C)N(C)C(=O)[C@H]2CCCN2C(=O)[C@@H](CC(C)C)NC(=O)CN(C)C1=O | 1.07 |

Some of these lines once more (block 1):
| target | remaining activity [%] |
| --- | --- |
| Casein kinase I isoform delta (CSNK1D, Homo sapiens, UniProt P48730) | 101 |
| Serine/threonine-protein kinase PAK 1 (PAK1, Homo sapiens, UniProt Q13153) | 99.8 |
| Serine/threonine-protein kinase PAK 6 (PAK6, Homo sapiens, UniProt Q9NQU5) | 114 |
| Cyclin-dependent kinase 2, with cyclin E (CDK2, Homo sapiens, UniProt P24941) | 64.4 |
| Ephrin type-A receptor 2 (EPHA2, Homo sapiens, UniProt P29317) | 102 |
| Calcium/calmodulin-dependent protein kinase type 1 (CAMK1, Homo sapiens, UniProt Q14012) | 105 |
| Tyrosine-protein kinase receptor TYRO3 (TYRO3, Homo sapiens, UniProt Q06418) | 99.3 |
| Protein kinase C zeta type (PRKCZ, Homo sapiens, UniProt Q05513) | 31 |
| Mitogen-activated protein kinase kinase kinase 20 (MAP3K20, Homo sapiens, UniProt Q9NYL2) | 87.3 |
| Dual specificity protein kinase CLK1 (CLK1, Homo sapiens, UniProt P49759) | 105 |
